Measurements collected from several papers.
A part holds a random share of what one study measured. Values joined by “and” are separate records of one study, mostly repeats; a detail may differ.
UniProt Q9NYY3, sequence (whole entry, looked up): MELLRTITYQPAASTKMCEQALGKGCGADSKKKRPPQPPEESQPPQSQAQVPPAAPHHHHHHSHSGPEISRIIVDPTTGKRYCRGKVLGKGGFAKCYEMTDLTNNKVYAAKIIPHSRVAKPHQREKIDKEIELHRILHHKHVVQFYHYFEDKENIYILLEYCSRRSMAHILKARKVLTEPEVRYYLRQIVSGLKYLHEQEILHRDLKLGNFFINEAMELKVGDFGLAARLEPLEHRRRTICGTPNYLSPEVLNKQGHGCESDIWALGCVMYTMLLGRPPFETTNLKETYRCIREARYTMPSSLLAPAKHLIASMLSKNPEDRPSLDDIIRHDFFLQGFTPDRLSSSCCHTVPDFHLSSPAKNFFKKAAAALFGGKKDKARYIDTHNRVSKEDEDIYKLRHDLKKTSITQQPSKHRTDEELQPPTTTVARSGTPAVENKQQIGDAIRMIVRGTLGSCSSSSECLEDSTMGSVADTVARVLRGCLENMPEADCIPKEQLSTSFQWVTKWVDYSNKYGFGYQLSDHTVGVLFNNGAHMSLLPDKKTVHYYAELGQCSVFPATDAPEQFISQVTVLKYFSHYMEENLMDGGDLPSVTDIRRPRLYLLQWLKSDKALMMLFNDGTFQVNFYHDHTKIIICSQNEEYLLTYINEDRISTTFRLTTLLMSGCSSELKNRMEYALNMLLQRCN
UniProt Q9BYT3, sequence (whole entry, looked up): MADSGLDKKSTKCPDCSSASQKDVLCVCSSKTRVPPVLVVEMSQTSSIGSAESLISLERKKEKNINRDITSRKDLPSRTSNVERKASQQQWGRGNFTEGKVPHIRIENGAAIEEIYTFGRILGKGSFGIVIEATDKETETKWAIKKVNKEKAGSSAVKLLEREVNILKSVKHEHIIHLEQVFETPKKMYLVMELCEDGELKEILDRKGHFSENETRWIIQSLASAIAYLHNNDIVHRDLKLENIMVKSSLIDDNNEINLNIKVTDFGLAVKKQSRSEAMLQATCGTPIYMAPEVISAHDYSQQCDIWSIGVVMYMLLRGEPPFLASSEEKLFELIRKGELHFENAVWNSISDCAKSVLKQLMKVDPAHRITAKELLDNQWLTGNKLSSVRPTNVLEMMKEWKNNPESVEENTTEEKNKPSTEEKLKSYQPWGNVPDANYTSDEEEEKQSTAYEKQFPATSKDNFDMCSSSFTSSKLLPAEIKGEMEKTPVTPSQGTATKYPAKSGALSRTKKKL
UniProt O15264, sequence (whole entry, looked up): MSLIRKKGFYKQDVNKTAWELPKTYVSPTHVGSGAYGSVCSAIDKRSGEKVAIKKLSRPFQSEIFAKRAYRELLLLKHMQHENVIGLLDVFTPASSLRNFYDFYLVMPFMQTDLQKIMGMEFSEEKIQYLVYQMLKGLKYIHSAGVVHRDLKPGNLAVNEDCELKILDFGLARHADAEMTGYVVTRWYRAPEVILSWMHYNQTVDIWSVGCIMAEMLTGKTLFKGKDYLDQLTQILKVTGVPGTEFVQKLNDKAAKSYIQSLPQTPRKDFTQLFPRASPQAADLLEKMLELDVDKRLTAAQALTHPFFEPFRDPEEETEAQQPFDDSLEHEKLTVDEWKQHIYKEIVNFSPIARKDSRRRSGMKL
UniProt P68400, sequence (whole entry, looked up): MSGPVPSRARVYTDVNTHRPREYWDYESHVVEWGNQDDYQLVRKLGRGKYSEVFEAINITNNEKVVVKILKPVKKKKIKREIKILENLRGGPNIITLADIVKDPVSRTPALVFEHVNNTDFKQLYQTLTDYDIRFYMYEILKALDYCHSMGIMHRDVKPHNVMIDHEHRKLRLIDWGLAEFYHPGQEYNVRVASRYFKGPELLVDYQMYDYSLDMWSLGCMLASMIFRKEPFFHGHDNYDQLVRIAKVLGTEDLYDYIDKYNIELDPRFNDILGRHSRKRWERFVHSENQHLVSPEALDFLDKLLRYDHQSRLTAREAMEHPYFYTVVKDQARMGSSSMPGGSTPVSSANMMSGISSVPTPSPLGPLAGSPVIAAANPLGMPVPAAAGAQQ

Sample 1 — effect on: enzyme activity; action: inhibitor; concentration: 0.5 µM
Structure (SMILES): CN[C@@H]1C[C@H]2O[C@@](C)([C@@H]1OC)n1c3ccccc3c3c4c(c5c6ccccc6n2c5c31)C(=O)NC4
| target | test | how to read | remaining activity |
| --- | --- | --- | --- |
| Serine/threonine-protein kinase PLK2 (PLK2, Homo sapiens, UniProt Q9NYY3) | – | relative to: control | 94.8% and 97.5% |
| Mitogen-activated protein kinase 13 (MAPK13, Homo sapiens, UniProt O15264) | – | relative to: control | 86.6% |
| Serine/threonine-protein kinase WNK2 (WNK2, Homo sapiens, UniProt Q9Y3S1) | – | relative to: control | 93.1% |
| Casein kinase II subunit alpha (CSNK2A1, Homo sapiens, UniProt P68400) | – | relative to: control | 101% |
| Serine/threonine-protein kinase 33 (STK33, Homo sapiens, UniProt Q9BYT3) | radiometric | – | 10.7% |

Sample 2 — effect on: enzyme activity; action: inhibitor; concentration: 77 µM
Target: DNA polymerase theta, ATPase domain (POLQ, Homo sapiens, UniProt O75417)
UniProt O75417, sequence (whole entry, unmodified, looked up): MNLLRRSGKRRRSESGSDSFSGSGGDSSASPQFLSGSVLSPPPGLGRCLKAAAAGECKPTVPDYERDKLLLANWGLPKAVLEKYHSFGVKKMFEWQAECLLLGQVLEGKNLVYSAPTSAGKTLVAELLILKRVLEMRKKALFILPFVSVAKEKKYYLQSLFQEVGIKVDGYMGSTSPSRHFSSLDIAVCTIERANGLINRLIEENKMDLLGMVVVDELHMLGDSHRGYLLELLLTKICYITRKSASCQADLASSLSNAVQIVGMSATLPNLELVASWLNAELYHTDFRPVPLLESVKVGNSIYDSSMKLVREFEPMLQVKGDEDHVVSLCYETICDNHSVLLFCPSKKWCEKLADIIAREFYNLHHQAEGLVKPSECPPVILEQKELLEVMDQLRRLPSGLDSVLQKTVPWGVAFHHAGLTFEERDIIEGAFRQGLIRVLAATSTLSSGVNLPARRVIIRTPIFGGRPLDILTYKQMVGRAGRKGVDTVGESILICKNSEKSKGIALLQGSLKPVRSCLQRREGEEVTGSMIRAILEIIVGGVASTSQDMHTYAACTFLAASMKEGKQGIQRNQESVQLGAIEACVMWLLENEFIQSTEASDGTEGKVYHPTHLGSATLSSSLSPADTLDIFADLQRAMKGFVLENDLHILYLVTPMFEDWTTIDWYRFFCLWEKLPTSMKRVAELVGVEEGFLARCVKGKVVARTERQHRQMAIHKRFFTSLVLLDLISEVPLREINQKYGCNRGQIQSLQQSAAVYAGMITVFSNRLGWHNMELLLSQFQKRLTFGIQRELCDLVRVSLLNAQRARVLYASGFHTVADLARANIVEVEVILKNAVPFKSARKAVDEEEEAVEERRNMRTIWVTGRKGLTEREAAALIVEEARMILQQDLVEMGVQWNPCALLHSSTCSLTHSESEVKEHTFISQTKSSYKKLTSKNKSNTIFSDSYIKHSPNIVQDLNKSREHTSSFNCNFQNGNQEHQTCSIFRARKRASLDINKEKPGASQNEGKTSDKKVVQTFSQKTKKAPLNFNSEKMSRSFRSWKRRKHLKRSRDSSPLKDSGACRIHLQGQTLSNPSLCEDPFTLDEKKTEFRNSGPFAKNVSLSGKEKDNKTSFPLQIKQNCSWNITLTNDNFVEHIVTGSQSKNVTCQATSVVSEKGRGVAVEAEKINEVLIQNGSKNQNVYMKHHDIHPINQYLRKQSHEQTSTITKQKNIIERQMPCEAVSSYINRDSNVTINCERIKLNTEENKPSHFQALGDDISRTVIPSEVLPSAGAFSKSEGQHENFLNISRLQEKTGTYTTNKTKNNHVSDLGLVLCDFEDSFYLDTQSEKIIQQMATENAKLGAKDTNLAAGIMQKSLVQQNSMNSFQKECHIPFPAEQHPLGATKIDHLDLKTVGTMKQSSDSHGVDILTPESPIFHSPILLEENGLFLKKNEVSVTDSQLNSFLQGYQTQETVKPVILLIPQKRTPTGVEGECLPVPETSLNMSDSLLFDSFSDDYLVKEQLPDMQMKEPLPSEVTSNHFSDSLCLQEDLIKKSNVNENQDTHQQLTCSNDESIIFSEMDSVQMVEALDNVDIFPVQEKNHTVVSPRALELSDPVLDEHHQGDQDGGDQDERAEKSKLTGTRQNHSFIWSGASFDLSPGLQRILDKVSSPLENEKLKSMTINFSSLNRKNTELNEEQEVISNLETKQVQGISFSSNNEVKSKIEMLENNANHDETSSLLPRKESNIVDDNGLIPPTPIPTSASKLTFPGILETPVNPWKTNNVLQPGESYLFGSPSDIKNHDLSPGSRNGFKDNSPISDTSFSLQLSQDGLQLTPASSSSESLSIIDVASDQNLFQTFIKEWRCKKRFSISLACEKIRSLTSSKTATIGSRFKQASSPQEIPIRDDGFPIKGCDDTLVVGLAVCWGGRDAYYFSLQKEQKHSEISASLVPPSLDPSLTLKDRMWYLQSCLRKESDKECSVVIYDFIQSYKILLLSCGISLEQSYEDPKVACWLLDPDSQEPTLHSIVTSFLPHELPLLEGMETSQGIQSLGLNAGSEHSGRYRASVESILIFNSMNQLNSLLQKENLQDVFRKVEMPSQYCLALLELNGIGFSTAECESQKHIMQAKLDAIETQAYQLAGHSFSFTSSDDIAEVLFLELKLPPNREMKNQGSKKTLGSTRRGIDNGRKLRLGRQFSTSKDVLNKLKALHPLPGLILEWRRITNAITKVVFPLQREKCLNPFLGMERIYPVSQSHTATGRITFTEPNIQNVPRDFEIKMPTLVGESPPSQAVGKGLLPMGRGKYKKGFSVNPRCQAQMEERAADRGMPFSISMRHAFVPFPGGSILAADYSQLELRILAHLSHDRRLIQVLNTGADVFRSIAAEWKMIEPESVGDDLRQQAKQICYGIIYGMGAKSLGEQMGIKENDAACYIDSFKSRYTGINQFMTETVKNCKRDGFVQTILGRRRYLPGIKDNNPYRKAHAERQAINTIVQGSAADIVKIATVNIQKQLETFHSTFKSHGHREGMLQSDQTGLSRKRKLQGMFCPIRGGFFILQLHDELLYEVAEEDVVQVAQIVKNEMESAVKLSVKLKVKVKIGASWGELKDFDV
| SMILES | remaining activity [%] |
| --- | --- |
| COc1c2c(cc3c1OCO3)CCN(C)C2 | 101 |
| CCCN(CCC)C1CCc2cccc(O)c2C1 (stereo not drawn) | 113 |
| CCCN1CCc2cccc3c2[C@H]1Cc1ccc(O)c(O)c1-3 | 103 |
| CC(=O)NC1CCSC1=O (racemic) | 95.7 |

Sample 3 — effect on: enzyme activity; action: inhibitor; concentration: 10 µM
Target: Calcium/calmodulin-dependent protein kinase type II subunit alpha (CAMK2A, Homo sapiens, UniProt Q9UQM7)
UniProt Q9UQM7, sequence (whole entry, looked up): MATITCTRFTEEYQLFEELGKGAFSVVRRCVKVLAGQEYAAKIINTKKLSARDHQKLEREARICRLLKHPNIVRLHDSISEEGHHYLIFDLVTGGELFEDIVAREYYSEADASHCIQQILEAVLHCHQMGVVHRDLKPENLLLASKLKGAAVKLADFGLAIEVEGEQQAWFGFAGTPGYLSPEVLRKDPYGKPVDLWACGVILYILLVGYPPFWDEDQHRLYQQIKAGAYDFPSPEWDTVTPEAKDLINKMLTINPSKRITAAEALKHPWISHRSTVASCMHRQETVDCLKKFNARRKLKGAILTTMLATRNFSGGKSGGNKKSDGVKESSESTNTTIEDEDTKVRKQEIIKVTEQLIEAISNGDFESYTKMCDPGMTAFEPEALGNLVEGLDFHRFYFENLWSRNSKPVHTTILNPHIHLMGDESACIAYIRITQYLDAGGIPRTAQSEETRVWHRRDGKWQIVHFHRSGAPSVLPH
| Compound | inhibition [%] |
| --- | --- |
| OCC(Cl)(Cl)Cl | -4 |
| COC[C@]12CN(C)C3[C@@H]4[C@H](OC)[C@H]1[C@@]3([C@@H](OC)C[C@H]2O)[C@@H]1C[C@@]2(O)[C@H](OC(=O)c3ccccc3)[C@@H]1[C@]4(O)[C@@H](O)[C@@H]2OC | 31 |
| CN[C@H]1[C@H](O)[C@H](O[C@@H]2[C@@H](O)[C@H](O[C@H]3O[C@H](C(C)O)[C@@H](O)[C@H](O)[C@H]3N)[C@@H](N)C[C@H]2N)OC[C@@]1(C)O (stereo partly drawn) | 25 |
| O=[N+]([O-])c1ncc[nH]1 | -15 |
| NCc1c[nH]c2ccccc12 | 3 |

Mixed results — concentration: 1 µM
| SMILES | tested on | test | conditions | how to read | quantity | result |
| --- | --- | --- | --- | --- | --- | --- |
| CCOCCn1cc(C(=O)Nc2ccc(-n3nc(-c4cccnc4)cc3C(F)(F)F)cn2)ccc1=O | Serine/threonine-protein kinase PknB (pknB, Mycobacterium tuberculosis, UniProt P9WI81) | cell-free assay, competition with immobilised ligand | – | – | remaining binding | 95% |
| COc1cc(-c2cn(C3CCc4c(F)cccc4N(CC(F)(F)F)C3=O)nn2)ccc1-n1cnc(C)c1 (stereo not drawn) | Cyclin-dependent kinase 2 homolog (CRK2, Plasmodium falciparum, UniProt P61075) | cell-free assay, competition with immobilised ligand | – | – | remaining binding | 100% |
| Cc1cc(NC(=O)c2cccc(S(F)(F)(F)(F)F)c2)cc(-n2ccn3nc(-c4cccnc4)cc23)c1 | sample G normal colon organoid | CellTiter-Glo | 4 days | relative to: DMSO | viability | 90.7% |
| FC(F)(F)c1ccc2c(c1)nc(-c1cccnc1)n2C1CC1 | Calcium-dependent protein kinase 1 (CDPK1, Plasmodium falciparum, UniProt P62344) | cell-free assay, competition with immobilised ligand | – | – | remaining binding | 100% |

Repeated from above (sample 1):
| target | test | how to read | remaining activity |
| --- | --- | --- | --- |
| Mitogen-activated protein kinase 13 (MAPK13, Homo sapiens, UniProt O15264) | – | relative to: control | 86.6% |
| Serine/threonine-protein kinase WNK2 (WNK2, Homo sapiens, UniProt Q9Y3S1) | – | relative to: control | 93.1% |
| Casein kinase II subunit alpha (CSNK2A1, Homo sapiens, UniProt P68400) | – | relative to: control | 101% |
